Measured values pooled from the literature.
Each numbered part is a random draw from the data of one study; scales do not carry over between parts. Positions count from the first letter of the parent shown.
Sequence of UniProt O60285 (whole entry, looked up): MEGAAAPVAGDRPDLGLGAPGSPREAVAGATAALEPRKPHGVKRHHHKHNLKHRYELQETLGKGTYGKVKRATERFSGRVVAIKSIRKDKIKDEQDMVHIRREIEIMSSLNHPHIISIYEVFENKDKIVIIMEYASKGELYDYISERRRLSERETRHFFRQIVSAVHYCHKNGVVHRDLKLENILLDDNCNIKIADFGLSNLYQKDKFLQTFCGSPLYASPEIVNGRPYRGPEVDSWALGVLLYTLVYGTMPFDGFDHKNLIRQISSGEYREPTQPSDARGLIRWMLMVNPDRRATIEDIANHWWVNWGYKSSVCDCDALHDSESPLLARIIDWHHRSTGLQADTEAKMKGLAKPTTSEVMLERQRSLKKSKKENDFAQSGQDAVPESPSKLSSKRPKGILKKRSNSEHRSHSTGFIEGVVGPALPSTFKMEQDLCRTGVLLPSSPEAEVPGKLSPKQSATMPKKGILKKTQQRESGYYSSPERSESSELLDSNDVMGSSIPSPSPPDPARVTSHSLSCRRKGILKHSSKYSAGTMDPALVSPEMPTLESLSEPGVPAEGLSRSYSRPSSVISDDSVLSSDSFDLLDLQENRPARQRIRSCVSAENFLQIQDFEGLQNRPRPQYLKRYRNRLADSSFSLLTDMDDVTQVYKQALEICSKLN

Sample 1
Target: CEP164, C-terminal peptide (human)
Method: DHFR complementation, deep sequencing
Medium: yeast
Notes: single substitutions, model-inferred values
Baseline: wild type
Reading: higher = weaker binding
Endpoint: binding free energy change
Starting sequence: PDZK1, PDZ domain 2 (human); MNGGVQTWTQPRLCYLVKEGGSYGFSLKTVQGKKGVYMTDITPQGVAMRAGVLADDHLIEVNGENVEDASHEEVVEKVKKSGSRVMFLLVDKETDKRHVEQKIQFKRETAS; partner HNRVKVYRF
Change = E67G; value = 0.427 kcal/mol
Change = F105H; value = -0.164 kcal/mol
Change = L53E; value = 0.369 kcal/mol
Change = L16K; value = 1.38 kcal/mol
Change = G82R; value = 0.661 kcal/mol
Change = E108I; value = -0.233 kcal/mol
Change = V66F; value = 0.789 kcal/mol
Change = V75H; value = 2.24 kcal/mol

Sample 2
Target: Ras GTPase-activating protein-binding protein 1, RRM domain (G3BP1, Homo sapiens, UniProt Q13283)
Sequence of UniProt Q13283 (whole entry, looked up): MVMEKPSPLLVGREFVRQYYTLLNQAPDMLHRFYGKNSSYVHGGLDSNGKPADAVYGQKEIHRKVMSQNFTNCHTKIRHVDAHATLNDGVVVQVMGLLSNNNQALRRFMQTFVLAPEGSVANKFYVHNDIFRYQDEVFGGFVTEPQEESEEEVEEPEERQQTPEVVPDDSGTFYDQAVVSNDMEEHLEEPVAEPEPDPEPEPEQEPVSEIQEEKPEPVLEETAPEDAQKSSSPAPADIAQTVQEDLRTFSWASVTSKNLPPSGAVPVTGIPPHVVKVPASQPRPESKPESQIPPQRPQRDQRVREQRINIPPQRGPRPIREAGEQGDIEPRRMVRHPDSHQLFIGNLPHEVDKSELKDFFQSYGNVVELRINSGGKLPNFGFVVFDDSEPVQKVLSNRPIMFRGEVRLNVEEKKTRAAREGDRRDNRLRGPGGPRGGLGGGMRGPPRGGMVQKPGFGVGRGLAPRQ
Method: RNA Bind-n-Seq
Molecule type: RNA
Medium: in vitro
Concentration: 1 µM
Notes: whole 134-nt RNA, ends assumed
Added: 150 mM KCl
Baseline: input library
Reading: higher = stronger binding
Endpoint: log2 enrichment
Shared flanks, not repeated: GGGAGUUCUACAGUCCGACGAUC … UGGAAUUCUCGGGUGUCAAGG
Strand = AAGUCCUGUGCUACACAUCGUAUGUACCGAAUCGGGGAAAAGGAAAAGGGAAAAGGGAAAGUAUUAUGUUACGCCGUUCGGAUCUGCACU; value = -0.196
Strand = UCAAGUCCUGUGCUACACAUCGUAUGUACCGAAUCGGGGUUUGGUUUGGUUUGGGAAAGUAUUAUGUUACGCCGUUCGGAUCUGCACUUC; value = -0.311
Strand = AGUCCUGUGCUACACAUCGUAUGUACCGAAUCGGGUUUUUGGGAAAAAGGGUUUGGGAAAGUAUUAUGUUACGCCGUUCGGAUCUGCACU; value = 0.208
Strand = UAACUUUAGAGGAGGAUCUGAUGGAUAUGGCAGUGGACGUGGAUUUGGGGAUGGCUAUAAUGGGGAUGGAGGAGGACCUGGAGGUGGCAA; value = -0.203
Strand = GCAGGAAGUAAAAACAAAUGGAAAUGCUUGGGAUAGUGGCAGGGGUGGGGGUUGCUAAGGAAAGGGUGGGAUGGGAGUGGGUAAAGAGUU; value = 1.26
Strand = UCCUCAAGUCCUGUGCUACACAUCGUAUGUACCGAAUCGGGUGGGUGGUGGAAAGUAUUAUGUUACGCCGUUCGGAUCUGCACUUCCAGC; value = -0.146
Strand = CUCAAGUCCUGUGCUACACAUCGUAUGUACCGAAUCGGGCCGGCCGGGCCGGGAAAGUAUUAUGUUACGCCGUUCGGAUCUGCACUUCCA; value = -0.548
Strand = AGUCCUGUGCUACACAUCGUAUGUACCGAAUCGGGUGGGAAAAAAAGGGAAAAAGGGAAAGUAUUAUGUUACGCCGUUCGGAUCUGCACU; value = 0.591

Sample 3
Partner: H2BC9 (Homo sapiens, UniProt Q93079)
Method: cross-linking MS
Notes: hits only
Endpoint: interaction screen
Substance = SUB1 (Homo sapiens, UniProt P53999); value = cross-linked
Substance = H2BC5 (Homo sapiens, UniProt P58876); value = cross-linked
Substance = HMGB1 (Homo sapiens, UniProt P09429); value = cross-linked
Substance = H3-4 (Homo sapiens, UniProt Q16695); value = cross-linked
Substance = H2AX (Homo sapiens, UniProt P16104); value = cross-linked
Substance = HMGN1 (Homo sapiens, UniProt P05114); value = cross-linked

Mixed results
SMILES = Nc1[nH]nc2nnc(-c3c(-c4ccccc4)nn4ccccc34)cc12; target = NUAK family SNF1-like kinase 1 (NUAK1, Homo sapiens, UniProt O60285); test = enzyme activity, inhibitor; setting = 0.5 µM; how to read = baseline: control; endpoint = remaining activity; value = 92.5%

Repeated from above (sample 3):
Substance = SUB1 (Homo sapiens, UniProt P53999); value = cross-linked
Substance = H2BC5 (Homo sapiens, UniProt P58876); value = cross-linked
